Published values from different studies.
Each line is one published result; not all experiments were run side by side. ± gives the spread as reported.

SMILES | method | matrix | time | pH | notes | logD
COc1ccc2c3c1O[C@H]1C(=O)CC[C@@]4(O)[C@@H](C2)N(CC2CCC2)CC[C@]314 |  | octanol/phosphate buffer | 1 h | pH 7.38 | ionic strength 0.15 M | 1.66
Cn1ccc([C@H](CO)Nc2nc(N3C[C@@H]4C[C@H]3CO4)c3cc(-c4ccccc4)oc3n2)n1 | chromatographic |  |  |  |  | 3.4 ± 0.2
CSCC[C@@H]1NC(=O)[C@H](CC(N)=O)NC(=O)[C@@H](NC(=O)CCOCCOCCOCCNC(=O)CN2CCN(CC(=O)O)CCN(CC(=O)O)CC2)CSSC[C@@H](C(=O)O)NC(=O)[C@H](C(C)C)NC(=O)[C@H](CCSC)NC(=O)[C@@H]2CCCN2C(=O)[C@H]([C@@H](C)O)NC(=O)[C@H](Cc2c[nH]cn2)NC1=O [gallium-68 labelled] | shake-flask | 1-octanol/PBS |  | pH 7.4 |  | -1.34 ± 0.18
COc1ccccc1[C@@H](NS(=O)(=O)c1cc2ccc(O)nc2cc1Cl)C(=O)N(CC(=O)NCCn1cc(COCCOCCOCC(=O)N[C@H](C(=O)N2C[C@H](O)C[C@H]2C(=O)NCc2ccc(-c3scnc3C)cc2)C(C)(C)C)nn1)Cc1cccs1 | fast-gradient HPLC |  |  | pH 7.4 |  | 2.3
Cc1cccc2c1C1(CCN(C(=O)c3ccc4[nH]ncc4c3)CC1)C(=O)N2CC(=O)NCC(F)(F)F |  |  |  | pH 7.4 |  | 2.68
CN[C@@H](C)C(=O)N[C@H](C(=O)N1C[C@@H](NC(=O)COCCOCc2cn(CCNC(=O)CN(Cc3cccs3)C(=O)[C@H](NS(=O)(=O)c3cc4ccc(O)nc4cc3Cl)c3ccccc3OC)nn2)C[C@H]1C(=O)N[C@@H]1CCCc2ccccc21)C1CCCCC1 | fast-gradient HPLC |  |  | pH 7.4 |  | 2.4
C=CCN1CCC23c4c5ccc(OC(=O)c6ccc(NCc7cn(CCCCCCCCCCCC)nn7)cc6)c4OC2C(=O)CCC3(O)C1C5 (centres unmarked) |  |  |  | pH 7.4 |  | 2
O=C(CN1C(=O)C2(CCN(C(=O)c3cnc4[nH]ncc4c3)CC2)c2c(Cl)cccc21)NCC(F)(F)F |  |  |  | pH 7.4 |  | 2.53
COc1ccc2c3c1O[C@H]1[C@@H](O)C=C[C@H]4[C@@H](C2)N(CC2CCC2)CC[C@@]341 |  | octanol/phosphate buffer | 1 h | pH 7.45 | ionic strength 0.15 M | 1.45
O=C(CN1C(=O)C2(CCN(C(=O)c3ccc4[nH]ncc4c3)CC2)c2c(Br)cccc21)NCC(F)(F)F |  |  |  | pH 7.4 |  | 3.27
Oc1ccc2c3c1O[C@H]1[C@@H](O)CC[C@H]4[C@@H](C2)N(CC2CCC2)CC[C@@]341 |  | octanol/phosphate buffer | 1 h | pH 7.45 | ionic strength 0.15 M | 0.75
CN[C@@H](C)C(=O)N[C@H](C(=O)N1C[C@@H](NC(=O)COCCOCCOCCOCc2cn(CCNC(=O)CN(Cc3cccs3)C(=O)[C@H](NS(=O)(=O)c3cc4ccc(O)nc4cc3Cl)c3ccccc3OC)nn2)C[C@H]1C(=O)N[C@@H]1CCCc2ccccc21)C1CCCCC1 | fast-gradient HPLC |  |  | pH 7.4 |  | 2.5
O=C(CN1CN(c2ccccc2)C2(CCN(C(=O)c3cnc4[nH]ncc4c3)CC2)C1=O)NCC(F)(F)F |  |  |  | pH 7.4 |  | 1.92
COc1ccc2c3c1O[C@H]1[C@H](O)CC[C@@]4(O)[C@@H](C2)N(C)CC[C@]314 |  | octanol/water, borax buffer | 1 h | pH 9.22 | ionic strength 0 M | 0.69
COc1ccccc1C(NS(=O)(=O)c1cc2ccc(O)nc2cc1Cl)C(=O)N(CC(=O)NCCn1cc(COCCOCCNc2cccc3c2C(=O)N(C2CCC(=O)NC2=O)C3=O)nn1)Cc1cccs1 (mixture of isomers) | fast-gradient HPLC |  |  | pH 7.4 |  | 2.4
COc1ccc2c3c1O[C@H]1[C@H](O)CC[C@H]4[C@@H](C2)N(C)CC[C@@]341 |  | octanol/buffer | 1 h | pH 7.4 |  | -0.14
COc1ccccc1[C@@H](NS(=O)(=O)c1cc2ccc(O)nc2cc1Cl)C(=O)N(CC(=O)NCCn1cc(COCCOCC(=O)N[C@H](C(=O)N2C[C@H](O)C[C@H]2C(=O)NCc2ccc(-c3scnc3C)cc2)C(C)(C)C)nn1)Cc1cccs1 | fast-gradient HPLC |  |  | pH 7.4 |  | 2.3

Repeated from above:
SMILES | method | matrix | time | pH | notes | logD
COc1ccc2c3c1O[C@H]1[C@@H](O)C=C[C@H]4[C@@H](C2)N(CC2CCC2)CC[C@@]341 |  | octanol/phosphate buffer | 1 h | pH 7.45 | ionic strength 0.15 M | 1.45
COc1ccccc1C(NS(=O)(=O)c1cc2ccc(O)nc2cc1Cl)C(=O)N(CC(=O)NCCn1cc(COCCOCCNc2cccc3c2C(=O)N(C2CCC(=O)NC2=O)C3=O)nn1)Cc1cccs1 (mixture of isomers) | fast-gradient HPLC |  |  | pH 7.4 |  | 2.4
